Assay results of several laboratories.
Protocols differ between the studies behind these lines. “And” joins repeats or separate records; there may be more than shown. Numbers after ± are the reported error.
UniProt O08914, sequence (whole entry, looked up): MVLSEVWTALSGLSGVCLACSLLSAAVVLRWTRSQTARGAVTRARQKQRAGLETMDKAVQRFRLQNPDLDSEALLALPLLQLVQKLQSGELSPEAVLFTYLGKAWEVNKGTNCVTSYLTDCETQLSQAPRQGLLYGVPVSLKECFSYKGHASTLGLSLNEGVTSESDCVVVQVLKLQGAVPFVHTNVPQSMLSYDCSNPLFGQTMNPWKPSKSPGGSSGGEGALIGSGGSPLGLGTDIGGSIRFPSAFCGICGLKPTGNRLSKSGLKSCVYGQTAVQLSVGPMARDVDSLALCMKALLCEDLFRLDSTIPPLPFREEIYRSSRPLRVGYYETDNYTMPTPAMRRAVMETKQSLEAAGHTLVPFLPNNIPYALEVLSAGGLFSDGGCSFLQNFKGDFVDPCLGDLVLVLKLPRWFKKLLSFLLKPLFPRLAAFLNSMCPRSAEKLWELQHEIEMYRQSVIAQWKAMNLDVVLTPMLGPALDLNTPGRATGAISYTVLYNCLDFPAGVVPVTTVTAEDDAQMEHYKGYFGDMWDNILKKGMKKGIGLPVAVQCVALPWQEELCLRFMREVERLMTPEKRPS
UniProt Q9UH17, sequence (whole entry, looked up): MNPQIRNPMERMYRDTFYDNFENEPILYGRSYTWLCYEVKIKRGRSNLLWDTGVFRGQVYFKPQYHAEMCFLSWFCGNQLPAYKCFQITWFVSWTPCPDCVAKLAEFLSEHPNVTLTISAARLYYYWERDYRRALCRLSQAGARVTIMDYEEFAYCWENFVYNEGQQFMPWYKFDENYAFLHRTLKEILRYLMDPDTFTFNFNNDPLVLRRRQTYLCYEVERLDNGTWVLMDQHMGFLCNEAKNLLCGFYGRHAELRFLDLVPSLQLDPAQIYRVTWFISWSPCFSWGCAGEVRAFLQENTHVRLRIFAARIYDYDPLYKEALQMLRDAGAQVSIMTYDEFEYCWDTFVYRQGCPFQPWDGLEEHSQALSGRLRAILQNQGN
UniProt O15264, sequence (whole entry, looked up): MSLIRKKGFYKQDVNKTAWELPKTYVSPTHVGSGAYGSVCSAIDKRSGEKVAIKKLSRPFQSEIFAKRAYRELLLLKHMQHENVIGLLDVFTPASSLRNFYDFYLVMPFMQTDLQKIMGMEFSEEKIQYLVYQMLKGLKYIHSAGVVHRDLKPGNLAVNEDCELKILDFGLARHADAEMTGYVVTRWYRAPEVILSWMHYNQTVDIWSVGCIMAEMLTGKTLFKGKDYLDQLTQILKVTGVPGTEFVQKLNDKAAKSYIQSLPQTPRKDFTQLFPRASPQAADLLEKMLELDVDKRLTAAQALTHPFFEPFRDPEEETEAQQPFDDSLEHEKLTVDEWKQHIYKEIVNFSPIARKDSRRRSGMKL
UniProt Q9Y2J8, sequence (whole entry, looked up): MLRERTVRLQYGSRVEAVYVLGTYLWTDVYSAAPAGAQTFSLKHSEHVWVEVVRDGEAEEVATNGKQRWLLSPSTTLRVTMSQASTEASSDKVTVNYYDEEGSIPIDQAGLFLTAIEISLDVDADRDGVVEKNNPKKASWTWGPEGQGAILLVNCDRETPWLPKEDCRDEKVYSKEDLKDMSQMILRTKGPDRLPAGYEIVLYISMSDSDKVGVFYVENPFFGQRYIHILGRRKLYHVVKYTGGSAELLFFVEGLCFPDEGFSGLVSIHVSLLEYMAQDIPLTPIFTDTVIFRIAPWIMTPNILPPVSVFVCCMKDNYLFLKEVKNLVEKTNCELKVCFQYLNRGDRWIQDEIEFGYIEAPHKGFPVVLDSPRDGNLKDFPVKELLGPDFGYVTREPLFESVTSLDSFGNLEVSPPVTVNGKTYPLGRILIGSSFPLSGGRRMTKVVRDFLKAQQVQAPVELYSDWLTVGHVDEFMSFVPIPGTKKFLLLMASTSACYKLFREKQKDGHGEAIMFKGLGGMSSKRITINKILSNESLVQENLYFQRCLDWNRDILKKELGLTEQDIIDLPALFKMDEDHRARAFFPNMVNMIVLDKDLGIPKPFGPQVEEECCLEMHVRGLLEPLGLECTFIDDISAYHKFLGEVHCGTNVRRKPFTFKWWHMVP
UniProt Q5S007, sequence (whole entry, looked up): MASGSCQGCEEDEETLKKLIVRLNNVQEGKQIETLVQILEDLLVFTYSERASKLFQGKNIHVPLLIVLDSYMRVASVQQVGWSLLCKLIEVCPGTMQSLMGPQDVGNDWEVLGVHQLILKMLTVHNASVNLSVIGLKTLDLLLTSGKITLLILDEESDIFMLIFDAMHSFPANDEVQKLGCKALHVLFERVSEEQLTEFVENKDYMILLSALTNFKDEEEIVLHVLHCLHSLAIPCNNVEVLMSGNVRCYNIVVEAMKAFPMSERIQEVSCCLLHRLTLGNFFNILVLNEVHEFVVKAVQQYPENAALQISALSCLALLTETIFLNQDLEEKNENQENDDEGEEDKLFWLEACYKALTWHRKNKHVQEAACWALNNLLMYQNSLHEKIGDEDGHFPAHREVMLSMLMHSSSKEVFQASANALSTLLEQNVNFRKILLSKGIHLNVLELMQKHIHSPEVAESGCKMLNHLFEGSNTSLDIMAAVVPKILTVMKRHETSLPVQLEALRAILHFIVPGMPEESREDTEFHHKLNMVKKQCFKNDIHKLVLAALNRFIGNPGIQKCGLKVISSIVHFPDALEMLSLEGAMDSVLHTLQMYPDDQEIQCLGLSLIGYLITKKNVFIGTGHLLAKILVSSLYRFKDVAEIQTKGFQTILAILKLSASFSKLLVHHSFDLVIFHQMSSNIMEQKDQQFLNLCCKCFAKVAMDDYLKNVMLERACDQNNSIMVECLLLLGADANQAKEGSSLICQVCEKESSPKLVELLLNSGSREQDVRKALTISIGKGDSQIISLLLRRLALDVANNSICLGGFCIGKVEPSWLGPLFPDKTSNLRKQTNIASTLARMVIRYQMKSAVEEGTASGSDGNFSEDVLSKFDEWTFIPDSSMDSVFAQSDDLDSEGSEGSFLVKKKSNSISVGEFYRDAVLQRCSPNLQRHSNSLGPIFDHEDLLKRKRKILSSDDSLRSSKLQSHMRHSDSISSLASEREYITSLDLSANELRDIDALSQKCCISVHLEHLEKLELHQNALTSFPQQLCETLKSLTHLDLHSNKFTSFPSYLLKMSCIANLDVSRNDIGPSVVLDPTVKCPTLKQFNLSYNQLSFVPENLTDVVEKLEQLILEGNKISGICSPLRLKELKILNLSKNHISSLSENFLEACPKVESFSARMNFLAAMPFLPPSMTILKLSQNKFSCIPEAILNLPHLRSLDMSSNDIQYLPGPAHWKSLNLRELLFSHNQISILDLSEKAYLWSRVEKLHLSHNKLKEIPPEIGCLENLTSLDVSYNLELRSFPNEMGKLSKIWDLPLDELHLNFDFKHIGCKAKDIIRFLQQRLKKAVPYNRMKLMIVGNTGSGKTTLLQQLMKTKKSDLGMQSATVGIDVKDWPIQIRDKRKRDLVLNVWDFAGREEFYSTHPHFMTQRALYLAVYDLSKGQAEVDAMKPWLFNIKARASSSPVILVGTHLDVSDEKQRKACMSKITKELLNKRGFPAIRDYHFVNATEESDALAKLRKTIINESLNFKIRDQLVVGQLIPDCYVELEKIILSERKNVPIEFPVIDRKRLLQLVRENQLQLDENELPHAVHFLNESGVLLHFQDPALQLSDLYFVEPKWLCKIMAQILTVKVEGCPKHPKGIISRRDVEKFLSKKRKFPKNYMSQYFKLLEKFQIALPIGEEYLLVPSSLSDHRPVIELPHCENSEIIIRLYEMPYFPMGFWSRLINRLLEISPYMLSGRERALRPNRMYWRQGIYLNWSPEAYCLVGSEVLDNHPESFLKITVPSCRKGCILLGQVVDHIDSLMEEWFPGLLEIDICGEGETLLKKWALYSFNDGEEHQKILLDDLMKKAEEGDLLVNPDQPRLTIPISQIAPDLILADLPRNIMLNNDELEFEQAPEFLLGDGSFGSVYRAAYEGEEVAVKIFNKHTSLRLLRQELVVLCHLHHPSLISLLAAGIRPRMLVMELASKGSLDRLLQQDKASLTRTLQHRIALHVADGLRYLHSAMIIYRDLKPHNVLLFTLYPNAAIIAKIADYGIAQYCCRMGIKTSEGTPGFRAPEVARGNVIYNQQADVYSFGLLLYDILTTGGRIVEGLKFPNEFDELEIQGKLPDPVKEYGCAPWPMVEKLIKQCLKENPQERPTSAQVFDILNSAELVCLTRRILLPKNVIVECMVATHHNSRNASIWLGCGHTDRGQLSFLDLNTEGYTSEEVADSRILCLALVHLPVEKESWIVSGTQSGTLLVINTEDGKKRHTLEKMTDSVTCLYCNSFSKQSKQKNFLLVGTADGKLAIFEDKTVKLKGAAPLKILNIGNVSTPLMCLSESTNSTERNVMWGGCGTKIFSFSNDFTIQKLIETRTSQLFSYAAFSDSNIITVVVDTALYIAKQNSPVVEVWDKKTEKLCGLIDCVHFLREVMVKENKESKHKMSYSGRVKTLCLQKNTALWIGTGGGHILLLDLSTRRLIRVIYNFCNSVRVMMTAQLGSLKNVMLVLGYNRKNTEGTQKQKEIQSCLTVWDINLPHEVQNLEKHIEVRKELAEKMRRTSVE
UniProt P33533, sequence (whole entry, looked up): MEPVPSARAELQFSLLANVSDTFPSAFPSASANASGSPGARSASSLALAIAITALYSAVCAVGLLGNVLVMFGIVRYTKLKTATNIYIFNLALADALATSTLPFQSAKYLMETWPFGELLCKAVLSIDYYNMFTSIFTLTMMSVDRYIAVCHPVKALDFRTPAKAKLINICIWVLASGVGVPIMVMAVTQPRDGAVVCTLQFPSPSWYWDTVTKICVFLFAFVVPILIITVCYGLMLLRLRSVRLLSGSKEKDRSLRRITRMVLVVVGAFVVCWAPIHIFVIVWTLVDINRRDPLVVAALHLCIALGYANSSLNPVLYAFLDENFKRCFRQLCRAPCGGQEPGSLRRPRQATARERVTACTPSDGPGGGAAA

CN(C)[C@H]1C[C@@]23CC[C@@]4(O2)C(=CC[C@]2(C)[C@@H](c5ccc6ccncc6c5)CC[C@H]24)C=C3[C@@H](O)[C@@H]1O  inhibition (Microtubule-associated serine/threonine-protein kinase 3 (MAST3, Homo sapiens, UniProt O60307); ATP probe labelling, inhibitor, KiNativ profiling; 1 µM): 1.1%
Cc1sc2c(c1C)C(c1ccc(Cl)cc1)=N[C@@H](CC(=O)OC(C)(C)C)c1nnc(C)n1-2  binding stoichiometry (Bromodomain-containing protein 3, BD2 (BRD3, Homo sapiens, UniProt Q15059); isothermal titration calorimetry; concentration not given, 15 °C, reverse titration): 1.03 ± 0.002
O=C1NC2(CC2)COc2ncc(F)cc2[C@H]2COCCN2c2ccn3ncc1c3n2  serum LDH activity (Sprague-Dawley rat, female, serum; oral, 5 mg/kg/day, end of treatment, 4-week subacute toxicity): 782 ± 271 U/L
CC[C@H](C)[C@H](NC(=O)[C@H](CO)NC(=O)[C@H](Cc1ccc(O)cc1)NC(=O)[C@H](Cc1ccc(O)cc1)NC(=O)[C@H](CC(N)=O)NC(=O)CNC(=O)[C@H](CO)NC(=O)[C@H](Cc1ccc(O)cc1)NC(=O)[C@H](CO)NC(=O)[C@H](CO)NC(=O)[C@H](CC(N)=O)NC(=O)COCCOCCNC(=O)CN1CCN(CC(=O)O)CCN(CC(=O)O)CCN(CC(=O)O)CC1)C(=O)N[C@@H](CC(C)C)C(N)=O [copper-64 labelled]  maximum metastasis uptake (dynamic PET; tamoxifen-induced PDAC mouse model, metastases; 0.1 min, CLDN4-expressing tumours): 0.81 %IA/cc
CS(C)(=O)=Nc1ccc(-c2ccc(-c3nc4cc(O[C@@H]5CO[C@H]6[C@@H]5OC[C@H]6O)[nH]c4cc3F)cc2)cc1  inhibition (Leucine-rich repeat serine/threonine-protein kinase 2 (LRRK2, Homo sapiens, UniProt Q5S007); enzyme activity, inhibitor; 10 µM): 1%
CCCC[C@H]1CNCCN1C[C@@H]1CCCN1C[C@@H](Cc1ccc2ccccc2c1)N1CCN(CCc2ccc(Cl)c(Cl)c2)[C@H](Cc2ccc(O)cc2)C1  remaining binding (Delta-type opioid receptor (Oprd1, Rattus norvegicus, UniProt P33533); radioligand binding; rat brain membranes; 500 nM, pH 7.5, 25 °C, with: 2 nM [3H]DPDPE): 83.8%
C=CC(=O)Nc1cc(-c2ccc(C(=O)N3CCCC(O)(CC)C3)cc2)ccc1F (stereo not shown)  adducted protein (DNA dC->dU-editing enzyme APOBEC-3B, C-terminal domain (Homo sapiens, UniProt Q9UH17); covalent adduct, intact protein MS; 5 h, 10-fold excess, 250 µM): 64%
CCCc1cc2cc(-n3c4c(c5ccccc53)C(=O)CC(C)(C)C4)cc(N3CCC(O)CC3)c2c(=O)[nH]1  selectivity ratio (Heat shock protein HSP 90-beta (HSP90AB1, Homo sapiens, UniProt P08238); fluorescence polarization; relative to: apparent KD Hsp90α over apparent KD HSP90AB1): > 17 fold
O=C1NC(=O)c2c1c1cc(F)c[n+]3c1c1c2c2cc(O)ccc2[n]1[Ru-4]312([N]=C=S)[S+]3CC[S+]1CC[S+]2CC3 (stereo not shown)  remaining activity (Fibroblast growth factor receptor 1 (FGFR1, Homo sapiens, UniProt P11362); enzyme activity; 100 nM, human enzyme, with: 10 µM ATP; relative to: untreated): 74%
CC(C)(C)C(=O)OCOP(=O)(OCOC(=O)C(C)(C)C)C1CCCN(O)C1=O (stereo not shown)  TGI (MOLT-4): 2.69 µM
CC(C)[C@H]1NC(=O)C[C@H]2/C=C/CCSSC[C@@H](NC1=O)C(=O)N[C@H](Cc1cccc3ccccc13)C(=O)NCC(=O)O2  inhibition (Serine/threonine-protein kinase pim-3 (PIM3, Homo sapiens, UniProt Q86V86); enzyme activity, inhibitor; 10 µM): 2.5%
CC(C)CC(O)(CC(C)C)c1cn(C(=O)N2CCCC2)nn1  SILAC activity ratio (Fatty-acid amide hydrolase 1 (Faah, Mus musculus, UniProt O08914); probe labelling, inhibitor, competitive ABPP-SILAC; mouse T cells; concentration not given, 4 h, single peptide; relative to: treated over DMSO cells, lower = stronger inhibition): 1.05 and 1.19 and 1.11 and 1.1 and 1.43 and 1.13 and 1.27 and 1.37
COc1ccccc1-c1n[nH]c2nc(NC3CCN(C(=O)Cc4ccc(F)cc4F)CC3)ncc12  relative binding (cdc2-related kinase 6 (Leishmania donovani, UniProt A0A3Q8IPR6); affinity bead binding, bead competition pull-down; Leishmania donovani extract; 10 µM, analogue affinity beads; relative to: vehicle): 0.15
[CH3][Ti+2][O]C(=O)c1ccc([S][Au][PH](c2ccccc2)(c2ccccc2)c2ccccc2)cc1.c1cc[cH-]c1.c1cc[cH-]c1  remaining activity (Mitogen-activated protein kinase 13 (MAPK13, Homo sapiens, UniProt O15264); kinase activity, HotSpot radiometric; 1 µM, with: ATP 10 µM; relative to: vehicle): 97.6% and 94.4%
Cc1cc(C(=O)Nc2nc3cccc(C)c3n2[C@H]2CCCCN(C(=O)/C=C/CN(C)C)C2)ccn1  cells in S phase (Trypanosoma brucei; propidium iodide flow cytometry; bloodstream form; concentration not given, 8 h): 19.4%
N[C@H](C(=O)N1CCCC1)C1CCN(c2nccc3c(-c4ncc(Cl)cc4Cl)cccc23)CC1  kcat (Protein-arginine deiminase type-2 (PADI2, Homo sapiens, UniProt Q9Y2J8); enzyme activity; 0.2458 µM, with: Ca2+ 0.25 mM): 0.18 s⁻¹ and 0.202 s⁻¹

For quick reference, copied from above:
C=CC(=O)Nc1cc(-c2ccc(C(=O)N3CCCC(O)(CC)C3)cc2)ccc1F (stereo not shown)  adducted protein (DNA dC->dU-editing enzyme APOBEC-3B, C-terminal domain (Homo sapiens, UniProt Q9UH17); covalent adduct, intact protein MS; 5 h, 10-fold excess, 250 µM): 64%
CCCc1cc2cc(-n3c4c(c5ccccc53)C(=O)CC(C)(C)C4)cc(N3CCC(O)CC3)c2c(=O)[nH]1  selectivity ratio (Heat shock protein HSP 90-beta (HSP90AB1, Homo sapiens, UniProt P08238); fluorescence polarization; relative to: apparent KD Hsp90α over apparent KD HSP90AB1): > 17 fold
